Experimental data from different studies.
Lines come from different studies, so protocols differ. Several values in a cell are separate wells, animals, samples, runs or records. ± gives the spread as reported. Values after ≈ are worked out from the molar mass of the structure shown.

Compound | target or system | test | system | conditions | scale | measurement | result
O=C(O)c1ncn(CCO)c1C(=O)O | Mammarenavirus lassaense | viral replication | Vero | 48 h | – | IC90 | > 50 µg/mL
O=C(C=Cc1ccc(O)c(O)c1)OC1CC(O)(C(=O)O)CC(OC(=O)C=Cc2ccc(O)c(O)c2)C1O (stereo not drawn) | Severe acute respiratory syndrome coronavirus 2 | cytopathic effect | Vero C1008 | 1.562 µM | – | inhibition | 0%
CCCCCCCCCCCCCCCC(=O)N[C@@H](CCC(=O)NCCOCCOCCC(=O)NCCOCCOCCC(=O)NCCCC[C@H](NC(=O)[C@H](CC(=O)O)NC(=O)[C@H](CC(C)C)NC(=O)[C@H](Cc1ccc(O)cc1)NC(=O)[C@H](CCCCN)NC(=O)[C@H](CO)NC(=O)[C@H](Cc1ccc(O)cc1)NC(=O)[C@H](CC(=O)O)NC(=O)[C@H](CO)NC(=O)[C@@H](NC(=O)[C@H](Cc1ccccc1)NC(=O)[C@@H](NC(=O)CNC(=O)[C@H](CCC(N)=O)NC(=O)[C@@H](CO)NC(=O)[C@@H](N)Cc1c[nH]cn1)[C@@H](C)O)[C@@H](C)O)C(=O)N[C@@H](CCCNC(=N)N)C(=O)N[C@@H](CCCNC(=N)N)C(=O)N[C@@H](C)C(=O)N[C@@H](CCC(N)=O)C(=O)N[C@@H](CC(=O)O)C(=O)N[C@@H](Cc1ccccc1)C(=O)N[C@H](C(=O)N[C@@H](CCC(N)=O)C(=O)N[C@@H](Cc1c[nH]c2ccccc12)C(=O)N[C@@H](CC(C)C)C(=O)N[C@@H](CC(C)C)C(=O)N[C@@H](CC(N)=O)C(=O)N[C@H](C(=O)NCC(=O)NCC(=O)N1CCC[C@H]1C(=O)N[C@@H](CO)C(=O)N[C@@H](CO)C(=O)NCC(=O)N[C@@H](C)C(=O)N1CCC[C@H]1C(=O)N1CCC[C@H]1C(=O)N1CCC[C@H]1C(=O)N[C@@H](CO)C(N)=O)[C@@H](C)O)C(C)C)C(=O)O | – | – | rhesus monkey, female | subcutaneous, 20 µg/kg once daily, 28 days | – | urea | 6.44 ± 0.81 mmol/L
COC(=O)CCCC1C2CCCN3CCCC(CN1S(=O)(=O)c1ccc(Cl)cc1)C23 (stereo not drawn) | Ebola virus | – | – | EBOV GP pseudotyped HIV | relative to: CC50 over IC50 | selectivity index | 24.3
NNC(=O)c1ncn(C2OC(CO)C(O)C2O)c1C(=O)NN (stereo not drawn) | Zaire ebolavirus | viral replication, inhibitor | Vero | 72 h | – | IC50 | 23 µg/mL (≈ 72.7 µM)
COc1ccc(C2=[N+]([O-])c3ccccc3N3CC(C)(C)CN=C23)cc1 | Clostridium perfringens | – | – | – | – | MIC90 | 8 µg/mL (≈ 23.9 µM)
CC[C@H](C)[C@H](NC(=O)[C@H](C)NC(=O)[C@H](CCC(=O)O)NC(=O)[C@H](CCC(=O)O)NC(=O)[C@H](CC(C)C)NC(=O)[C@H](CCCCN)NC(=O)[C@H](CCCCN)NC(=O)[C@H](CCSC)NC(=O)[C@H](CCC(=O)O)NC(=O)[C@H](Cc1ccc(O)cc1)NC(=O)[C@H](CCC(=O)O)NC(=O)[C@H](CC(C)C)NC(=O)[C@H](CC(=O)O)NC(=O)[C@H](CC(C)C)NC(=O)[C@H](Cc1ccccc1)NC(=O)[C@@H](NC(=O)[C@@H](NC(=O)[C@H](CC(N)=O)NC(=O)[C@@H](NC(=O)[C@H](CCC(N)=O)NC(=O)[C@H](CC(=O)O)NC(=O)[C@H](CC(C)C)NC(=O)[C@H](CO)NC(C)=O)[C@@H](C)CC)C(C)C)[C@@H](C)O)C(=O)N[C@@H](CCCCN)C(=O)N[C@@H](CCCCN)C(=O)N[C@@H](CC(C)C)C(=O)N[C@@H](CCC(=O)O)C(=O)N[C@@H](CCC(=O)O)C(=O)N[C@@H](CO)C(=O)N[C@@H](Cc1ccc(O)cc1)C(=O)N[C@H](C(=O)N[C@@H](CC(=O)O)C(=O)N[C@@H](CC(C)C)C(=O)N[C@@H](CCCCN)C(=O)N[C@@H](CCC(=O)O)C(=O)N[C@@H](CC(C)C)C(=O)NCC(=O)N[C@@H](CO)C(=O)NCC(=O)N[C@@H](CCCCNC(=O)[C@H](CSSC[C@H](NC(C)=O)C(=O)NCCCC[C@H](NC(=O)CNC(=O)[C@H](CO)NC(=O)CNC(=O)[C@H](CC(C)C)NC(=O)[C@H](CCC(=O)O)NC(=O)[C@H](CCCCN)NC(=O)[C@H](CC(C)C)NC(=O)[C@H](CC(=O)O)NC(=O)[C@@H](NC(=O)[C@H](Cc1ccc(O)cc1)NC(=O)[C@H](CO)NC(=O)[C@H](CCC(=O)O)NC(=O)[C@H](CCC(=O)O)NC(=O)[C@H](CC(C)C)NC(=O)[C@H](CCCCN)NC(=O)[C@H](CCCCN)NC(=O)[C@@H](NC(=O)[C@H](C)NC(=O)[C@H](CCC(=O)O)NC(=O)[C@H](CCC(=O)O)NC(=O)[C@H](CC(C)C)NC(=O)[C@H](CCCCN)NC(=O)[C@H](CCCCN)NC(=O)[C@H](CCSC)NC(=O)[C@H](CCC(=O)O)NC(=O)[C@H](Cc1ccc(O)cc1)NC(=O)[C@H](CCC(=O)O)NC(=O)[C@H](CC(C)C)NC(=O)[C@H](CC(=O)O)NC(=O)[C@H](CC(C)C)NC(=O)[C@H](Cc1ccccc1)NC(=O)[C@@H](NC(=O)[C@@H](NC(=O)[C@H](CC(N)=O)NC(=O)[C@@H](NC(=O)[C@H](CCC(N)=O)NC(=O)[C@H](CC(=O)O)NC(=O)[C@H](CC(C)C)NC(=O)[C@H](CO)NC(C)=O)[C@@H](C)CC)C(C)C)[C@@H](C)O)[C@@H](C)CC)[C@@H](C)CC)C(N)=O)NC(C)=O)C(N)=O)[C@@H](C)CC | SARS-CoV-2 Wuhan | viral replication | VeroE6/TMPRSS2 cells | – | relative to: corresponding monomer | fold change IC50 vs corresponding monomer | 1.07
COC(=O)c1ncn(C2OC(COC(=O)c3ccccc3)C(OC(=O)c3ccccc3)C2OC(=O)c2ccccc2)c1C(=O)OC (stereo not drawn) | Mammarenavirus lassaense | viral replication | Vero | 48 h | – | IC90 | > 50 µg/mL
Cc1cc(/C=C/C#N)cc(C)c1-n1cnc2cnc(Nc3ccc(C#N)cc3)nc21 | HIV-1 | viral replication, single-round infection | RT mutant M230L | – | – | EC50 | 4.2 ± 0.5 nM
O=[N+]([O-])c1ccc(-n2nc(-c3ccc(F)cc3)cc2-c2ccc(F)cc2)c([N+](=O)[O-])c1 | Japanese encephalitis virus | – | SA14-14-2, BALB/c mice, spleen | ip, 100 mg/kg/day | relative to: untreated | viral RNA reduction | > 70%
CC(C=CC(O)=C1C(=O)CNC1=O)=CC(C)C1OC2(C)OC(C(=O)C(O)C2(C)O)C1C (stereo not drawn) | Bacillus anthracis | – | 34F2 | – | – | MIC | > 100 µM
O=S(=O)(O)c1c2ccccc2c(-c2c3nc(c(-c4c5ccccc5c(S(=O)(=O)O)c5ccccc45)c4ccc([nH]4)c(-c4c5ccccc5c(S(=O)(=O)O)c5ccccc45)c4nc(c(-c5c6ccccc6c(S(=O)(=O)O)c6ccccc56)c5ccc2[nH]5)C=C4)C=C3)c2ccccc12 | vaccinia virus | – | CV-1, WR | 25 µg/mL, 16 h | – | viral titre | 3e+06 PFU/mL
Cc1ccc(NS(=O)(=O)c2c(C(=O)N3CCCCCC3)c(C)n(C)c2C)c(Cl)c1 | Monkeypox virus | – | Vero C1008, wild type | 0.04 µM, 72 h | relative to: untreated | relative infection | 96% and 101%
CN[C@@H]1[C@H](O)[C@H](NC)[C@H]2O[C@]3(O)[C@H](O[C@@H]2[C@H]1O)O[C@H](C)C[C@H]3NC(=O)Cc1ccc(Cl)cn1 | Bacillus anthracis | microbial growth | STERNE34F2 | – | – | MIC | 25 µg/mL
CC(C)CC(C(=O)N1CC2(CC1C#N)C(=O)Nc1ccccc12)N(C)C(=O)c1cc2c(F)cc(F)c(F)c2[nH]1 (stereo not drawn) | SARS-CoV-2 | viral replication, infectious virus | Vero E6 | 0.9 µM | – | inhibition | 100%
CN[C@@H]1[C@H](O)[C@H](NC)[C@H]2O[C@]3(O)[C@H](O[C@@H]2[C@H]1O)O[C@H](C)C[C@@]3(O)CNCc1ccc(F)cc1 | Legionella pneumophila | – | ATCC 33153 | 40 µg per disc, 48 h | – | inhibition zone diameter | 32 to 33 mm
CCCCCCCCCCCCCC(=O)N[C@@H](CCCNC(=N)N)C(=O)N[C@@H](CO)C(=O)N[C@@H](CCSC)C(=O)N[C@@H](CCCCN)C(=O)N[C@@H](CCCNC(=N)N)C(=O)N[C@@H](CO)C(=O)N[C@@H](CC(C)C)C(=O)N[C@H](C(=O)N1CCC[C@H]1C(=O)N[C@@H](CCCNC(=N)N)C(=O)N[C@@H](Cc1c[nH]c2ccccc12)C(=O)N[C@H](C(=O)NCC(=O)N[C@@H](CC(N)=O)C(=O)N[C@@H](CCCCN)C(=O)N[C@@H](CCCNC(=N)N)C(=O)O)[C@@H](C)CC)[C@@H](C)CC | Vaccinia virus | – | B5-GFP | concentration not given | – | viral spread | no effect
[O-][N+]1=C(c2ccc(Cl)cc2)C2=NCCCCN2c2ccccc21 | Clostridium perfringens | microbial growth | – | – | – | MIC50 | 16 µg/mL (≈ 49.1 µM)
COC(=O)c1cc2c(=O)n3ccccc3nc2n1Cc1ccccc1 | Severe acute respiratory syndrome coronavirus 2 | viral replication, inhibitor, qPCR | Vero C1008 | 1 µM | – | inhibition | 22.2%
O=[N+]([O-])c1ccc(-n2nc(-c3ccccc3)cc2-c2ccc(F)cc2)c([N+](=O)[O-])c1 | Japanese encephalitis virus | western blot | Neuro2a | 5 µM, 72 h | – | NS1 protein level | no effect
[O-][N+]1=C(c2ccccc2)C2=NCCCN2c2ncccc21 | Clostridium perfringens | microbial growth | – | – | – | MIC50 | 0.5 µg/mL (≈ 1.8 µM)
Cc1cc(/C=C/C#N)cc(C)c1Nc1nc(Nc2ccc(C#N)cc2)ncc1N | HIV-1 | viral replication, single-round infection | RT mutant E40K | – | – | EC50 | 0.5 ± 0.1 nM
COc1ccc(C2=[N+]([O-])c3ccccc3N3CCN=C23)cc1 | Clostridium perfringens | microbial growth | – | – | – | MIC50 | 0.5 µg/mL (≈ 1.7 µM)
CC[C@H](C)[C@H](NC(=O)[C@H](CCCCN)NC(=O)[C@H](CCCCN)NC(=O)[C@H](CC(C)C)NC(=O)[C@H](Cc1c[nH]c2ccccc12)NC(=O)CN)C(=O)NCC(=O)N[C@@H](CCCCN)C(=O)N[C@@H](CCCCN)C(=O)N[C@H](C(=O)N[C@@H](CCC(=O)O)C(=O)N[C@@H](CCCNC(=N)N)C(=O)N[C@H](C(=O)NCC(=O)N[C@@H](CCC(N)=O)C(=O)N[C@@H](Cc1c[nH]cn1)C(=O)N[C@H](C(=O)N[C@@H](CCCNC(=N)N)C(=O)N[C@@H](CC(=O)O)C(=O)N[C@@H](C)C(=O)N[C@H](C(=O)N[C@H](C(=O)N[C@@H](CCC(N)=O)C(=O)N[C@H](C(=O)N[C@H](C(=O)NCC(=O)N[C@H](C(=O)N[C@@H](C)C(=O)N[C@@H](CCC(N)=O)C(=O)N[C@@H](CCC(N)=O)C(=O)N[C@@H](C)C(=O)N[C@@H](C)C(=O)N[C@@H](CC(N)=O)C(=O)N[C@H](C(=O)N[C@@H](C)C(=O)N[C@@H](C)C(=O)N[C@H](C(=O)N[C@@H](CC(C)C)C(=O)N[C@@H](CCCCN)C(N)=O)[C@@H](C)O)C(C)C)C(C)C)[C@@H](C)CC)[C@@H](C)O)[C@@H](C)CC)[C@@H](C)O)[C@@H](C)O)C(C)C)[C@@H](C)CC | Escherichia coli | – | ATCC 25922, CAMHB with 10% mouse serum | 150 mM NaCl | – | MIC | 1 µg/mL

Some of these lines once more:
Compound | target or system | test | system | conditions | scale | measurement | result
CC(C=CC(O)=C1C(=O)CNC1=O)=CC(C)C1OC2(C)OC(C(=O)C(O)C2(C)O)C1C (stereo not drawn) | Bacillus anthracis | – | 34F2 | – | – | MIC | > 100 µM
[O-][N+]1=C(c2ccc(Cl)cc2)C2=NCCCCN2c2ccccc21 | Clostridium perfringens | microbial growth | – | – | – | MIC50 | 16 µg/mL (≈ 49.1 µM)
O=[N+]([O-])c1ccc(-n2nc(-c3ccccc3)cc2-c2ccc(F)cc2)c([N+](=O)[O-])c1 | Japanese encephalitis virus | western blot | Neuro2a | 5 µM, 72 h | – | NS1 protein level | no effect
